# Results collected from several papers.
# Numbered parts are unrelated; each lists some results of a single study.

# Series 1 — method: protein binding microarray; molecule type: double-stranded DNA, one strand shown; matrix: in vitro; tested at: not given; reference: not given; reading: higher = stronger binding
# Target: Histone acetyltransferase KAT6A, winged helix 1, GST fusion (KAT6A, Homo sapiens, UniProt Q92794, residues 1-85)
# Setting: 8-mer, flanks averaged, mean of 2 arrays, mostly near background
# Residues (chain): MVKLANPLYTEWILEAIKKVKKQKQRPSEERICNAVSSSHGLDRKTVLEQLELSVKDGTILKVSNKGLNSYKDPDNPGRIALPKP
Oligonucleotide,E-score
CATTCGCA,0.0555
ACCAAACT,-0.121
ACCGTGAA,0.0982
ACAGCCCT,-0.0843
TCTTACCA,-0.146
ACAGTCGG,0.0494
CCCGAATC,-0.0341
CCGTCTGA,0.249
CGTCAAAC,0.118
AAGTGCAC,-0.126
AACTCGTC,-0.209
GCGTAGAA,0.114
CACCTATG,0.0162
AATTACTC,-0.0702
TACGCCTA,-0.00466
CGTGAGCA,0.185
AAACGTTA,-0.00818
CAGCGGGG,0.292
AGTGACTA,-0.0645
AATATTAG,-0.231
ACGCACAC,-0.00742

# Series 2 — method: aptamer microarray, sandwich; molecule type: DNA with 2'F-ANA; matrix: in vitro; tested at: 200 nM; added: Cy3 exosite-II aptamer, 400 nM; reading: higher = stronger binding; oligonucleotide: GGTTGGTGTGGTTGG
# Target: Prothrombin, mature alpha-thrombin (F2, Homo sapiens, UniProt P00734)
# Setting: whole 15-mer aptamer, many near background
Modification,mean fluorescence intensity
2'F-ANA at 2 3 4 7 8 9 10 12 13 15,254 a.u.
2'F-ANA at 1 2 4 5 7 9 10 13 15,47.2 a.u.
2'F-ANA at 4 8 9 10 11 12 13,74.9 a.u.
2'F-ANA at 1 2 3 4 5 6 8 11,56.1 a.u.
2'F-ANA at 2 3 5 8 11 12 13,169 a.u.
2'F-ANA at 2 6 9 10 11 13,146 a.u.
2'F-ANA at 1 2 6 9 11 13 15,87.1 a.u.
2'F-ANA at 2 3 4 5 6 7 8 9 11 13 14 15,52.6 a.u.
2'F-ANA at 1 2 3 7 9 10 11,67.4 a.u.
2'F-ANA at 1 2 4 8 9 12 13,185 a.u.
2'F-ANA at 1 2 6 7 12 15,311 a.u.
2'F-ANA at 3 7 14 15,620 a.u.
2'F-ANA at 1 4 5 8 9 10,55.8 a.u.
2'F-ANA at 4 6 7 10 15,79.4 a.u.
2'F-ANA at 2 3 4 5 10 13 14,47.3 a.u.
2'F-ANA at 2 3 4 5 11 12 14 15,56.4 a.u.
2'F-ANA at 1 5 6 9 10 13 14 15,51.7 a.u.
2'F-ANA at 1 2 3 7 8 9 10 12 13 14,56.4 a.u.
2'F-ANA at 2 7 8 11 15,446 a.u.
2'F-ANA at 2 4 5 6 7 10 11 12 15,52.4 a.u.
2'F-ANA at 1 3 5 6 8 13 15,65.8 a.u.
2'F-ANA at 1 2 4 6 7 8 11 12 15,236 a.u.
2'F-ANA at 4 7 8 10 11 15,88.2 a.u.
2'F-ANA at 3 6 7 8 9 10 11 15,465 a.u.
2'F-ANA at 1 4 5 6 7 8 12 13,82.3 a.u.

# Series 3 — method: universal PBM; molecule type: double-stranded DNA, one strand shown; matrix: in vitro; tested at: not given; reading: higher = stronger binding
# Target: Sal-like protein 4, full length isoform B (SALL4, Homo sapiens, UniProt Q9UJQ4-2, residues 1-616)
# Setting: 8-mer, flanks averaged, mean of replicates
# Target sequence (chain): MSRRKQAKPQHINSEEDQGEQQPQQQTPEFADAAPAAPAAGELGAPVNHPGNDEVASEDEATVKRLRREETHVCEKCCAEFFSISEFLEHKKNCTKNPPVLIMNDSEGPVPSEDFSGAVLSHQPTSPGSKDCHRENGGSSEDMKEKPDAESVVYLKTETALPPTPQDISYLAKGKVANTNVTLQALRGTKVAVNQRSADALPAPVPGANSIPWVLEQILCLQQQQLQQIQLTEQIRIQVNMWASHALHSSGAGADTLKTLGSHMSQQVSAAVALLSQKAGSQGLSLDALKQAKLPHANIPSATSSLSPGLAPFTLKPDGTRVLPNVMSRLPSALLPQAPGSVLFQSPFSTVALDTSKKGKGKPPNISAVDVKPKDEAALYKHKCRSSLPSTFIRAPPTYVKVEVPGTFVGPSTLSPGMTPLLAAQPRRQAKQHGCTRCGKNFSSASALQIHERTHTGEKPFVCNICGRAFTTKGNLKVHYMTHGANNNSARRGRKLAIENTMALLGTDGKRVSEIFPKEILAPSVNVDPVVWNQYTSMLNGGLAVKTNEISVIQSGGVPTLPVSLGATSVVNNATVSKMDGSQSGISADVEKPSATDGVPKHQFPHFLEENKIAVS
Oligonucleotide,E-score
GAAGGTCC,-0.185
CTTGCATC,-0.139
CCAGCAGC,-0.28
TATACTGA,0.291
AGGCACGG,-0.102
AGAGGGTA,-0.0531
AGCCTGAT,0.0114
ACCGCCTC,-0.256
GAAAGCTC,-0.295
AGGCACAT,0.0157
TATGGAAA,0.325
GACTTCGA,-0.0146
CCCGCGTC,-0.257
CAATTACA,0.273
ACCATCAG,-0.0932
ATAGATGC,0.0776
CCCGCCGA,-0.333
GAGCGCGA,-0.173
AAGTAGGC,-0.107
CCGACTCC,-0.316
GACGTTTA,0.144
GGGTCTCA,-0.169
AAAACTTA,0.346

# Series 4 — method: RNA Bind-n-Seq; molecule type: RNA; matrix: in vitro; tested at: 365 nM; reference: no-protein control; reading: higher = stronger binding
# Target: RNA binding protein fox-1 homolog 2, RRM domain, GST-SBP tag (RBFOX2, Homo sapiens, UniProt O43251-10, residues 100-194)
# Setting: natural RNA segment, single round, ends assumed
# All sequences stand within: GGGAGUUCUACAGUCCGACGAUC … UGGAAUUCUCGGGUGCCAA
# Target sequence (chain): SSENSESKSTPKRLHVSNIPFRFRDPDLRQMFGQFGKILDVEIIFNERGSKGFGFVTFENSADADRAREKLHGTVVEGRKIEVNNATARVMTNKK
Oligonucleotide,RBNS enrichment (R)
GUGCUGUACACUCAGCAUAUGUGCCUCUUGUAUGCAAGGACUACUGAUUGAAGUCUGUUUUGCUGUGUCUGGUUAUGUUGUCUGCACUUUUAUGAAAUCACUACAAUAGA,1.7
CCUCUCAGCCUAGCCUCUCCUCACUCAUUUUCAACGCUGACCCUGACAGGAUCCACAGACUUCUCCAGGACCUUCCAGAGACCCUGCCAGCUGUUAGAGGACAGAGCCAG,0.43
UUUUGACUCUUCCGUGCAUCCCAGAUAAUGGAGAAUGUAUCAGCCAGCCUUCCCCACCAAGUCUAAAAAGACCUGGCCUUUCACUUUUAGUUGGCAUUUGUUAUCCUCUU,0.804
CAGGAGUUUCCUGAGGUAGGUUAGUAGGGUCACGUGAAUGCCUCACUAUGACAUGACUUGAGUCCAGUGAGAUCUCAUUAGGAUUAAUAUUUCAGGGAUCCUUAAUAUUU,5.25
GAAUGUAAAAACAUUCAGUUGAGACCAUAUGCAUUUUCUGUGCUGUUUGUACUUGAGGUAUGUAACAUUUGUAUACCUGAACUUAUUUUAAAGAUGAACUGAAAUGCACA,0.302
UUCCCCUGGGUCAGUGAUGGAAAGGGGUUAACUUCAGCCAGGAUUGAUGGCAGCUGAGGGAAAUUCUUGCCCAACUAAACCCAGAACUCAAACUUAACAUUAGAAAAUAA,0.798
GCCUUUCCUGCAGGAAGAGCCUCCCAAGGGAUGGCCAAAGAAGAGCAGGAUAGGCAAAGCUGUGGAAUGUACAUUUCCUGGAUGUCAGGGGUGACCAAAACAGUACAUCA,0.25
AGGGGGCAGAGACCACAGGAGAGGUUCUUGCCUGCAUCCUCCCAUGAGGGUGUGGCCAGUUCCCUGGUUCUGUGCCAUGCUGCUGCUUGGUGGCAUUGGUUAGGAAUGGG,0.724
GUUUUAUAGAUACGGAAAACAAGGGUGACUCUUUACCACAGGAUGAAUAAAGAACUAAGUAAUAUGGGAAAUGCAGCAAUUUCUGGACUAGCUGAGCCGAUUCCUUCCUG,0.578
GAGGACAGGCCACUUGUGCUCAGAGAACCUCACCUCACCGCAGAAGUGGUGCCUCUUCCAGAAGACUCUGGAAGAUUACCUACUUGGGGGUAGGCCUUGGAGGGAAAUCU,0.394
AUUACCCCAGGUAACACUGGGCAAAAAUCUGGGGUGCAUAAUAGGGAAUUCUGAAUUCUUAGAUUUGAUUAUCCCAGAUCAUUUUUGCUAAGAAAAAUUCUUAUUUCUUU,0.475
UCCUAGUGUCAGCUCCCAGGCCGCCUUAGAGCUGCUCAUUCCUGAAUGACUGGCUCCCCUGCCCUUUUAGACAAAGGCUGCUGCUUUCAGCCUUCUCCAAGGGAGAGCCU,0.375

# Series 5 — method: protein-binding microarray; molecule type: double-stranded DNA, one strand shown; matrix: in vitro; tested at: 250 nM; setting: 60-bp whole probe; added: salmon DNA 0.4 mg/ml; reference: random background probes; reading: higher = stronger binding; all sequences stand within: GCCTAGCAC … GTCTTGATTCGCTTGACGCTGCTG
# Target: Interferon regulatory factor 5, full length, phosphomimetic (IRF5, Homo sapiens, UniProt Q13568-2, residues 1-514, K96S/S451D/S453D/S456D/S462D)
Oligonucleotide,log fluorescence
ATAGGACTGCTTTTCCTTTAGTGCTAG,0.313 z-score
GACGCTATCGGGTATCGGGACGTGCTA,3.52 z-score
GACGTACTGGGGACTGGGGACGTGCTA,-0.468 z-score
TCAGAACTGGGGTATCGATTAGTGCTA,2.26 z-score
ACTAGTTTCTTTTCTTTTCTGTGCTAG,4.01 z-score
TCAACTTTCTGAATGCCACTGTGCTAG,2.2 z-score
TCCCTTCAACAGTGCTGGCTGTGCTAG,0.0471 z-score
TTAGTTTCCGGTTTCGGTTAGTGCTAG,9.75 z-score
TTAGAACAGAGTTTCGATTAGTGCTAG,8.12 z-score
TTTAGAAAGATTAGGGGTGCGTGCTAG,0.244 z-score
GACGGTTTCGACACTAGGGACGTGCTA,4.38 z-score
TTAGGTCTCGGTATCGCTTAGTGCTAG,1.77 z-score
TTAGATTCCAGTTGCGATTAGTGCTAG,1.62 z-score
TGACAGAGTGAGGTTTGGGCGTGCTAG,-0.745 z-score
TTAGGTCTCCGACTGGGTTAGTGCTAG,-0.289 z-score
TTAGGTCTCCTGCTCCTTTAGTGCTAG,-0.347 z-score
TTAGGTATCGGTCTCGATTAGTGCTAG,7.1 z-score
GACGATCTCAGGTTCGAGACGTGCTAG,-0.188 z-score
TTAGAACTGGGGTATCGACTAGTGCTA,0.824 z-score
TTTTTTTTTTTTTGGAATGTGTGCTAG,1.18 z-score
TTATGTTCCCTTTTCCTTTAGTGCTAG,1.16 z-score
CTCGCCTGGGGATGCTAACAGTGCTAG,-0.814 z-score
TTAGAACTTAGTATCGATTAGTGCTAG,8.11 z-score
GACGATTTCGGGACTGGAGAAGTGCTA,2.12 z-score
GACGATTCCAGATTCGAGACGTGCTAG,0.0237 z-score

# A few entries again (series 1):
Oligonucleotide,E-score
ACCAAACT,-0.121
ACCGTGAA,0.0982
ACAGCCCT,-0.0843
TCTTACCA,-0.146
ACAGTCGG,0.0494
CCCGAATC,-0.0341
CCGTCTGA,0.249
CGTCAAAC,0.118
AAGTGCAC,-0.126
AACTCGTC,-0.209
GCGTAGAA,0.114
CACCTATG,0.0162
AATTACTC,-0.0702
TACGCCTA,-0.00466
CGTGAGCA,0.185
AAACGTTA,-0.00818
